Published values pooled from the literature.
Each line is one published result; not all experiments were run side by side. Numbers after ± are the reported error.
HTR3A: 5-hydroxytryptamine receptor 3A (HTR3A, Homo sapiens, UniProt P46098)
UniProt P46098, sequence (whole entry, looked up): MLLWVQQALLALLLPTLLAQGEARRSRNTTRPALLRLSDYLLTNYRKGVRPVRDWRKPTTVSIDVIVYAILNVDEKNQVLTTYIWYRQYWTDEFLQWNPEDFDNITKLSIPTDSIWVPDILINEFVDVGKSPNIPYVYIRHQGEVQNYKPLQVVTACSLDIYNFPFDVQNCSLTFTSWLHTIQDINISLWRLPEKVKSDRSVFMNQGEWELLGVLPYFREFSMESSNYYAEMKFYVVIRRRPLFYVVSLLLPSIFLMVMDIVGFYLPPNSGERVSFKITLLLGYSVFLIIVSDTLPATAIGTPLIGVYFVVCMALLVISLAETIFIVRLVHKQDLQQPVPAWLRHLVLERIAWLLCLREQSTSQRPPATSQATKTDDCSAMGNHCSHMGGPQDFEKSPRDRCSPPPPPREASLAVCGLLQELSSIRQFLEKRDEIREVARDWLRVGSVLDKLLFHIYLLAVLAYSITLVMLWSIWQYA

O=C(Nc1cnccc1Cl)N1CCN(Cc2ccc3c(c2)OC(F)(F)O3)CC1
inhibition of binding (HTR3A; radioligand binding; 50 µM, added: [3H]GR-65630): 0%

CCN(CC)CCCC[C@H](NC(=O)[C@H](CC(C)C)NC(=O)[C@H](C)NC(=O)[C@H](Cc1ccccc1)NC(=O)c1ccc(C(C)(C)C)cc1)C(=O)N[C@@H](CO)C(=O)OC
specific binding (HTR3A; antagonist, radioligand binding; 10 µM; relative to: control binding): 121%

O=c1ccc2ccccc2o1
inhibition (HTR3A; antagonist radioligand binding; 10 µM, SafetyScreen44): -3.33%

Cn1cnc(N)c2ncnc1-2
maximum inhibition (human coronavirus OC43; virus-induced cell killing; MRC-5; screen): 2.57%

CN(C(=O)n1cnc(-c2ccc[n+]([O-])c2)c1)C1CCCCC1
inhibition (HTR3A; radioligand binding; 50 µM, added: [3H]GR-65630): -6%

Cc1nc2ccc(CN(C)c3ccc(C(=O)N[C@@H](CCC(=O)O)C(=O)O)s3)cc2c(=O)[nH]1
maximum inhibition (human coronavirus OC43; virus-induced cell killing; MRC-5; screen): 17.3%

CN1[C@@H]2CC[C@H]1C[C@@H](OC(=O)c1cc(Cl)cc(Cl)c1)C2
Hill coefficient (HTR3A; binding, antagonist, radioligand binding): 1.1

Cn1cccc1-c1cccnc1
inhibition (HTR3A; binding; 50 µM, mean): -5.15%

O=C(Nc1cccnn1)N1CCC(=Cc2cccc(Oc3ccc(C(F)(F)F)cn3)c2)CC1
inhibition of binding (HTR3A; radioligand binding; 50 µM, added: [3H]GR-65630): -16%

O=C1CN=C(c2ccccc2)c2cc(/N=N/c3ccc(S(=O)(=O)O)cc3)ccc2N1
inhibition (HTR3A; 5-HT-induced current, inhibitor, whole-cell patch clamp; CHO cells; 50 µM, visible light, holding -30 mV, added: 5-HT): 82 ± 4%

CN1CCc2[nH]c3ccccc3c2CC1.O=C(O)/C=C/C(=O)O
activity (HTR3A; concentration not given): inactive

Excerpt of the above:
CN(C(=O)n1cnc(-c2ccc[n+]([O-])c2)c1)C1CCCCC1
inhibition (HTR3A; radioligand binding; 50 µM, added: [3H]GR-65630): -6%
